Experimental data collected from several papers.
Protocols differ between the studies behind these lines. Several values in a cell are separate wells, animals, samples, runs or records. ± gives the spread as reported.
MTAP: S-methyl-5'-thioadenosine phosphorylase (MTAP, Homo sapiens, UniProt Q13126)
Sequence of UniProt Q16678 (whole entry, looked up): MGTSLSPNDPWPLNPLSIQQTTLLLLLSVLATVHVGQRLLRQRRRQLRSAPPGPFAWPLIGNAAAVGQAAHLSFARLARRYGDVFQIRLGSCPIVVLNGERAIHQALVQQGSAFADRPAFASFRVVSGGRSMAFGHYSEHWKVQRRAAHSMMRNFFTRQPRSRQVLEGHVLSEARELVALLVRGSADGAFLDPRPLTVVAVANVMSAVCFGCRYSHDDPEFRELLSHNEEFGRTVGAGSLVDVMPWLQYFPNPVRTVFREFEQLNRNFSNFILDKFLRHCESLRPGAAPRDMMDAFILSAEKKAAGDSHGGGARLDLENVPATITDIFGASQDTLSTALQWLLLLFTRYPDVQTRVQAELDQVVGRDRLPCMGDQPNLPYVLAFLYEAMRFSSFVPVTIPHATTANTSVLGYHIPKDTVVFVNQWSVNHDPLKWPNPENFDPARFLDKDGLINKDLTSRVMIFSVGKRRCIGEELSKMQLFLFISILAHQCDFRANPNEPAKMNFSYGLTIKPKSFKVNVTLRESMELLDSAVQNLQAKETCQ
Sequence of UniProt Q13126 (whole entry, looked up): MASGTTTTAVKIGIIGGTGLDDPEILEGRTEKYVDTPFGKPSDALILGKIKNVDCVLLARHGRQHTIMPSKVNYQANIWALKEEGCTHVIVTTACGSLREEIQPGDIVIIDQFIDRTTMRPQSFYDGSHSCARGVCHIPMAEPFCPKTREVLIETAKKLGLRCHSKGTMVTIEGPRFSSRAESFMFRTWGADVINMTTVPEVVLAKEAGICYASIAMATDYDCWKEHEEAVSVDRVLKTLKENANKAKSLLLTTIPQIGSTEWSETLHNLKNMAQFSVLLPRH
Sequence of UniProt P09211 (whole entry, looked up): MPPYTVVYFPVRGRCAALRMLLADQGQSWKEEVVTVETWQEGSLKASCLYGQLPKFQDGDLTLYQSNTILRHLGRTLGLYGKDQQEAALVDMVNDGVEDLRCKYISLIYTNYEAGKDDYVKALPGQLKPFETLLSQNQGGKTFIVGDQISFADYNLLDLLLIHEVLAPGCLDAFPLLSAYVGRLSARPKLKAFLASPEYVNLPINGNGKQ
Sequence of UniProt P21879 (whole entry, looked up): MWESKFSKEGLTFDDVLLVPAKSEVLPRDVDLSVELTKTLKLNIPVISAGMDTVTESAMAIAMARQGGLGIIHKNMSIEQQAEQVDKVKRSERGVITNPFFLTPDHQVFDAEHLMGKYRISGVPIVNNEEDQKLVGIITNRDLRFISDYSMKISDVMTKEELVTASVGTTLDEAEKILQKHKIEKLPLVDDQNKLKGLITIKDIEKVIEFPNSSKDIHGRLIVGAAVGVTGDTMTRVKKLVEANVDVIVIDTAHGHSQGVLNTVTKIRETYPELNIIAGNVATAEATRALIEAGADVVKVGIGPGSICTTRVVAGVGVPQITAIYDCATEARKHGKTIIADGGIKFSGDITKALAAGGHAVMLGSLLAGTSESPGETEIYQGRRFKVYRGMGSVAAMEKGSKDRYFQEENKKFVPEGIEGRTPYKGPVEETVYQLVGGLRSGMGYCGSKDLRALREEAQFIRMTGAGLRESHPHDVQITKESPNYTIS
Sequence of UniProt P48546 (whole entry, looked up): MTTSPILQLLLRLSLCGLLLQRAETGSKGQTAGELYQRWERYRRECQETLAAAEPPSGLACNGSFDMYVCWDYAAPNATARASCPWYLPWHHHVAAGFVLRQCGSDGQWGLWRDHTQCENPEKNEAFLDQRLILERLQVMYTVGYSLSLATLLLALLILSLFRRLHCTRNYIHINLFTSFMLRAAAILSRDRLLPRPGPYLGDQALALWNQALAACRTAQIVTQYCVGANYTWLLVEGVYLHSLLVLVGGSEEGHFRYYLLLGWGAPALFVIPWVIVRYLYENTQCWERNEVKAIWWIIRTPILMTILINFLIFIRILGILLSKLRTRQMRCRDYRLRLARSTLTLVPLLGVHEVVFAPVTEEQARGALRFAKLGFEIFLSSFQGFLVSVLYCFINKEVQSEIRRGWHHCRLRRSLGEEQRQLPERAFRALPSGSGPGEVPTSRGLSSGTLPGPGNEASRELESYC
Sequence of UniProt Q84HF5 (whole entry, looked up): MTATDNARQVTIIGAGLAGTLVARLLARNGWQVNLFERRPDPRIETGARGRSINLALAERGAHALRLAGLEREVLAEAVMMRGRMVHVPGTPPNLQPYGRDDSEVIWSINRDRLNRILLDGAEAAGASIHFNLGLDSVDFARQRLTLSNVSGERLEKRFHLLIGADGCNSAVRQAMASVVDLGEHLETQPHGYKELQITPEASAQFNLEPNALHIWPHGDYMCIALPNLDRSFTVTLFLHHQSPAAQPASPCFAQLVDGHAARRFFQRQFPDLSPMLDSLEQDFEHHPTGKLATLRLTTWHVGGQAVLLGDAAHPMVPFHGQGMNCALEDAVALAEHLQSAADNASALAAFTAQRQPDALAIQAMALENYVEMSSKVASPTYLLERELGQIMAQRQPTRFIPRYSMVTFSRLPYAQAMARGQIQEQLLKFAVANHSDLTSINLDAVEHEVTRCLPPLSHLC
Sequence of UniProt Q06151 (whole entry, unmodified, looked up): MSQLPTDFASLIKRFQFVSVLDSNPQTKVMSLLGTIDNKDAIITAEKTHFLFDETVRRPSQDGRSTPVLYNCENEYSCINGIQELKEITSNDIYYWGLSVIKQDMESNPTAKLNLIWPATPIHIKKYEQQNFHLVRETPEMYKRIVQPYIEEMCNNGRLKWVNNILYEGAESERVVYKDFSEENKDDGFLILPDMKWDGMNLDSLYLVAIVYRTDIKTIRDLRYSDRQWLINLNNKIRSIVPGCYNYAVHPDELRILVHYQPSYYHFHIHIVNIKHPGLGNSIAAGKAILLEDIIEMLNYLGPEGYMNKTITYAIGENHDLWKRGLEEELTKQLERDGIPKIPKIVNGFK
Sequence of UniProt Q38087 (whole entry, unmodified, looked up): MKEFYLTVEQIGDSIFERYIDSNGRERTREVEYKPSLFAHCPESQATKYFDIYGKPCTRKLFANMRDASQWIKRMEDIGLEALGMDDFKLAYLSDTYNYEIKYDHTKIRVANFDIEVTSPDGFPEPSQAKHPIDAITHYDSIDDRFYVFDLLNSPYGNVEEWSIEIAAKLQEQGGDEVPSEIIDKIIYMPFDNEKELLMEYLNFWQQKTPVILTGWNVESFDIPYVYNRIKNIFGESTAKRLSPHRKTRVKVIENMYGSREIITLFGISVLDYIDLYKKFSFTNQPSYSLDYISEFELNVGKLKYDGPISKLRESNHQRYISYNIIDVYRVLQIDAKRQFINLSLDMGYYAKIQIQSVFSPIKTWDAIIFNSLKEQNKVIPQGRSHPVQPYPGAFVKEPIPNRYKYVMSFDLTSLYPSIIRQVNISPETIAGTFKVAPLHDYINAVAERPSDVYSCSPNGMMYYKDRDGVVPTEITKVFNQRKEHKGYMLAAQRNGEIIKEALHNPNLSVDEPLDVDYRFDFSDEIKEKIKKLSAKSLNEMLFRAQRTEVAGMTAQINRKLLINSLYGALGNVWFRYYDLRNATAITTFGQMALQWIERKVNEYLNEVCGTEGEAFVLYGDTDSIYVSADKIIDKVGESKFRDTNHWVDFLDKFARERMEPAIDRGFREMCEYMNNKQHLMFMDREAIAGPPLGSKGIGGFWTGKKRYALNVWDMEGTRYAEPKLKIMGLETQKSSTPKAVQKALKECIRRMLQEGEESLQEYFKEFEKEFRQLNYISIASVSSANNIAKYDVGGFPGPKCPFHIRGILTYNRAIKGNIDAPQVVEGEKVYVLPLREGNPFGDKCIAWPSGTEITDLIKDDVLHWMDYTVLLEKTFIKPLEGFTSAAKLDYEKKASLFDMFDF

Nc1nc2c(ncn2[C@H]2C[C@H](O)[C@@H](COP(=O)(O)OP(=O)(O)OP(=O)(O)O)O2)c(=O)[nH]1
Kd (DNA-directed DNA polymerase, with primer/template (43, Escherichia phage RB69, UniProt Q38087, D222A/D327A); binding, fluorescence titration; opposite tC°, dideoxy primer): 110000 ± 27000 nM

[Mn+2]
Kd (methionine aminopeptidase (Acinetobacter baumannii, UniProt A0A7U4DGZ4); metal binding, activator, activity titration; ATCC 17978; divalent metal ion Kd, together with: Met-AMC substrate): 570 nM

Nc1nc2c(c(=O)[nH]1)NC(CNc1ccc(C(=O)N[C@@H](CCC(=O)N[C@@H](CCC(=O)N[C@@H](CCC(=O)N[C@@H](CCC(=O)N[C@@H](CCC(=O)O)C(=O)O)C(=O)O)C(=O)O)C(=O)O)C(=O)O)cc1)CN2 (mixture of isomers)
Kd (KDM1A (Homo sapiens, UniProt O60341); binding; pH 7.5): 2800 nM

Nc1ncnc2c1ncn2[C@@H]1O[C@H](COP(=O)(O)OP(=O)(O)O)[C@@H](O)[C@H]1O
Kd (Kynurenine 3-monooxygenase (Pseudomonas fluorescens, UniProt Q84HF5); fluorescence polarization displacement; pH 7.0, together with: 30 nM fluorescent probe): 50000 ± 10000 nM

CSCC1NC(c2c[nH]c3c(N)ncnc23)[C@@H](O)[C@H]1O (stereo partly drawn)
Kd (MTAP; binding, isothermal titration calorimetry; pH 7.4, 25 °C, apo enzyme): 70 ± 10 nM

C[n+]1cn([C@@H]2O[C@H](COP(=O)(O)OP(=O)([O-])OP(=O)(O)OC[C@H]3O[C@@H](n4cnc5c(=O)[nH]c(N)nc54)[C@H](O)[C@@H]3O)[C@@H](O)[C@H]2O)c2nc(N)[nH]c(=O)c21
Kd (m7GpppX diphosphatase (DCS1, Saccharomyces cerevisiae, UniProt Q06151, H268N/K126A); isothermal titration calorimetry; 25 °C, open site, K126A H268N): 280000 nM

CC#Cc1ccc2ccc3cccc4ccc1c2c34
Kd (Cytochrome P450 1B1 (CYP1B1, Homo sapiens, UniProt Q16678); binding, fluorescence; pH 7.4): 1900 nM and < 2500 nM

CC1=C[C@H](O)CC(C)(C)[C@H]1/C=C/C(C)=C/C=C/C(C)=C/C=C/C=C(C)/C=C/C=C(C)/C=C/C1=C(C)C[C@@H](O)CC1(C)C
Kd (GSTP1 (Homo sapiens, UniProt P09211); binding, SPR): 1330 nM

CC(=O)N[C@@H](CO)C(=O)N[C@H]1CSSC[C@@H](C(=O)NCC(=O)N[C@@H](CO)C(=O)NCC(=O)N[C@@H](CO)C(=O)N[C@@H](CC(=O)O)C(=O)N[C@@H](Cc2ccc(O)cc2)C(=O)N[C@@H](CCCCN)C(=O)N[C@@H](CC(=O)O)C(=O)N[C@@H](CC(=O)O)C(=O)N[C@@H](CC(=O)O)C(=O)N[C@@H](CC(=O)O)C(=O)N[C@@H](CCCCN)C(N)=O)NC(=O)[C@H](Cc2ccccc2)NC(=O)[C@@H]2CCCN2C(=O)[C@H](Cc2c[nH]c3ccccc23)NC(=O)[C@H](CC(C)C)NC(=O)[C@H](CC(C)C)NC(=O)[C@H](CCC(N)=O)NC(=O)[C@H](Cc2ccccc2)NC(=O)[C@H](C)NC(=O)[C@H](CCCNC(=N)N)NC(=O)[C@H](Cc2ccccc2)NC1=O
Kd (Gastric inhibitory polypeptide receptor, extracellular domain (GIPR, Homo sapiens, UniProt P48546); binding, biolayer interferometry): 184 nM

Nc1ncnc2c1ncn2[C@@H]1O[C@H](COP(=O)(O)OP(=O)(O)OP(=O)(O)OP(=O)(O)OP(=O)(O)OC[C@H]2O[C@@H](n3cnc4c(N)ncnc43)[C@H](O)[C@@H]2O)[C@@H](O)[C@H]1O
Kd (guaB (Bacillus subtilis, UniProt P21879)): 30400 ± 23500 nM

CC(=O)N[C@@H](CC(C)C)C(=O)N[C@@H](CCCCN)C(=O)N[C@@H](CCCCN)C(=O)N[C@@H](CC(C)C)C(=O)N[C@@H](CC(C)C)C(=O)N[C@@H](CCCCN)C(=O)N[C@@H](CC(C)C)C(=O)N[C@@H](CC(C)C)C(=O)N[C@@H](CCCCN)C(=O)N[C@@H](CCCCN)C(=O)N[C@@H](Cc1c[nH]c2ccccc12)C(=O)N[C@@H](CC(C)C)C(=O)N[C@@H](CCCCN)C(=O)N[C@@H](CC(C)C)C(=O)N[C@@H](C)C(=O)NCC(N)=O
Kd (HCV IRES domain IV hairpin; competitive fluorescence anisotropy; pH 7.4, 20 °C, together with: rhodamine-Rev peptide): 4.4 ± 0.3 nM

CSCC1NC(c2c[nH]c3c(N)ncnc23)[C@@H](O)[C@H]1O (stereo partly drawn)
Kd (MTAP; binding third site, isothermal titration calorimetry): 700 ± 300 nM

A few entries again:
CC(=O)N[C@@H](CC(C)C)C(=O)N[C@@H](CCCCN)C(=O)N[C@@H](CCCCN)C(=O)N[C@@H](CC(C)C)C(=O)N[C@@H](CC(C)C)C(=O)N[C@@H](CCCCN)C(=O)N[C@@H](CC(C)C)C(=O)N[C@@H](CC(C)C)C(=O)N[C@@H](CCCCN)C(=O)N[C@@H](CCCCN)C(=O)N[C@@H](Cc1c[nH]c2ccccc12)C(=O)N[C@@H](CC(C)C)C(=O)N[C@@H](CCCCN)C(=O)N[C@@H](CC(C)C)C(=O)N[C@@H](C)C(=O)NCC(N)=O
Kd (HCV IRES domain IV hairpin; competitive fluorescence anisotropy; pH 7.4, 20 °C, together with: rhodamine-Rev peptide): 4.4 ± 0.3 nM

CSCC1NC(c2c[nH]c3c(N)ncnc23)[C@@H](O)[C@H]1O (stereo partly drawn)
Kd (MTAP; binding third site, isothermal titration calorimetry): 700 ± 300 nM
